Results of several laboratories.
Each numbered part is a random draw from the data of one study; scales do not carry over between parts.

Block 1
Organism: Saccharomyces cerevisiae
Read-out: mating pheromone growth arrest
Technique: pooled competitive growth deep sequencing
Molecule type: peptide
Strain: no Cln2 overexpression
Setting: peptide tiling library
Reading: direction not given
Endpoint: enrichment score
IPDRSTKPVVFSPT: 0.0082
RRRRLLFWDKETQI: -0.145
HRRRLLFACSPPPASQ: 0.249
VKTKKRLNFDDK: 0.0388

Block 2
Target: Prothrombin, mature alpha-thrombin (F2, Homo sapiens, UniProt P00734)
Technique: aptamer microarray, sandwich
Molecule type: DNA with 2'F-ANA
Medium: in vitro
Concentration: 200 nM
Setting: whole 15-mer aptamer, many near background
With: Cy3 exosite-II aptamer, 400 nM
Reading: higher = stronger binding
Endpoint: mean fluorescence intensity
Sequence: GGTTGGTGTGGTTGG
2'F-ANA at 4 5 7 11 12 13 14 15: 61.8 a.u.
2'F-ANA at 1 4 6 7 8 10 14: 44.9 a.u.
2'F-ANA at 4 5 6 9 10 11 13: 49.1 a.u.
2'F-ANA at 2 9 11 13 14 15: 109 a.u.
2'F-ANA at 1 2 3 4 5 6 7 14 15: 48.6 a.u.
2'F-ANA at 2 3 4 7 10 11 12 14: 214 a.u.
2'F-ANA at 2 3 5 8 9 10 13 14 15: 65.1 a.u.
2'F-ANA at 1 2 4 6 7 8 9 11 12 13: 157 a.u.
2'F-ANA at 3 4 5 6 10 12 14: 47.8 a.u.
2'F-ANA at 2 3 4 13 15: 463 a.u.
2'F-ANA at 1 3 4 9 10 11 14: 51.6 a.u.
2'F-ANA at 1 4 5 8 11 12 14: 50.6 a.u.
2'F-ANA at 1 2 3 5 6 9 10 11 12 15: 52.4 a.u.
2'F-ANA at 2 4 11 12 13 15: 380 a.u.
2'F-ANA at 2 4 5 6 7 8 10 12: 50 a.u.
2'F-ANA at 2 4 11 12 14: 138 a.u.
2'F-ANA at 2 3 6 7 10 12 15: 391 a.u.
2'F-ANA at 2 5 6 7 8 10 11 12 14: 45.7 a.u.
2'F-ANA at 1 6 7 9 10 11 12 15: 65.6 a.u.
2'F-ANA at 1 2 4 6 9 11 14: 43.4 a.u.

Block 3
Target: Fragile X messenger ribonucleoprotein 1, C-terminal low-complexity region (Fmr1, Mus musculus, UniProt P35922)
Technique: RNA Bind-n-Seq
Molecule type: RNA
Medium: in vitro
Concentration: 200 nM
Setting: whole 134-nt RNA, ends assumed
With: 150 mM LiCl
Relative to: input library
Reading: higher = stronger binding
Endpoint: log2 enrichment
All molecules: 7-deaza-guanosine replaces G
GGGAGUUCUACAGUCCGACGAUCUGGCUUUCACCCCCAACCAGUGACCAAAGACUUGACCACUCAAAGUCCAGCUCCCCAGAACACUGCUCGACAUGGACACCGGUGUGAUUGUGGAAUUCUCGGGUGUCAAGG: 1.43
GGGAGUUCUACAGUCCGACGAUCAGUCCUGUGCUACACAUCGUAUGUACCGAAUCAAAUUUAAAUUUUUAAACCCCCAAAAAAGUAUUAUGUUACGCCGUUCGGAUCUGCACUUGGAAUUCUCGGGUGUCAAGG: 0.273
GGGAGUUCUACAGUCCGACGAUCAAGUCCUGUGCUACACAUCGUAUGUACCGAAUCGGAAAAAGGUUUUUGGUUUUUGGAAAGUAUUAUGUUACGCCGUUCGGAUCUGCACUUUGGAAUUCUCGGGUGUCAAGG: -3.17
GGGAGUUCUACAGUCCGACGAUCCAAGUCCUGUGCUACACAUCGUAUGUACCGAAUCGGGGCCCGGGCCCGGCCCGGGAAAGUAUUAUGUUACGCCGUUCGGAUCUGCACUUCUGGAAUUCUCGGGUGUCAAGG: -1.46
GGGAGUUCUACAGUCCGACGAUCCACAGACAACACGCACCCACACAGACACAGAGGGAAGGGGUUGGGAUGGGGACAGGGUGCGCAGCAGGGCGGGGUAGGACCCCAGCCCCUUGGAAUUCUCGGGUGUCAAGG: -0.957
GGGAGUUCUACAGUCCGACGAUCUGCUGGCAGCCAAGCAGCAGCAGGAGAUGCUGGCAGCCAAGCGGCAGCAGGAGCUGGAGCAGCAGCGGCAGCGGGAGCAGCAGCGGCAGGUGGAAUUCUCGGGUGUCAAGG: -1.17
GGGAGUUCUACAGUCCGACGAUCGCAGGAAGCAAAAACAAAUGGAAAUGCUUCGGAUAGUGGCAGGGGUGGGGGUUGCUAAGGAAAGGGUGGGAUGGGAGUGGGUAAAGAGUUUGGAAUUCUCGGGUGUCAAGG: 1.42
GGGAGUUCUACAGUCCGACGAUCCUCAAGUCCUGUGCUACACAUCGUAUGUACCGAAUCGGUUUUUGGUUUGGUGGAAAGUAUUAUGUUACGCCGUUCGGAUCUGCACUUCCAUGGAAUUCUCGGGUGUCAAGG: -0.395
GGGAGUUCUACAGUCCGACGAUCUCCUCAAGUCCUGUGCUACACAUCGUAUGUACCGAAUCGGGUGGGUGGUGGAAAGUAUUAUGUUACGCCGUUCGGAUCUGCACUUCCAGCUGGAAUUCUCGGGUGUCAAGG: 0.098
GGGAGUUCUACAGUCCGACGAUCCACAGACAACAAACACCCACACAGACACAGAGGGAAGGGGUUGGGAUGGGGACAGGGUGCACAGCAGGGCGGGGUAGGACCCCAGCCCCUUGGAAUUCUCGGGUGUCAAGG: 0.163
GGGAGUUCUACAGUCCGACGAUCUCCUCAAGUCCUGUGCUACACAUCGUAUGUACCGAAUCGGAGGGGAGGGAGGAAAGUAUUAUGUUACGCCGUUCGGAUCUGCACUUCCAGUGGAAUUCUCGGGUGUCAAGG: -1.73

Block 4
Target: Histone acetyltransferase KAT6A, both winged helices, GST fusion (KAT6A, Homo sapiens, UniProt Q92794, residues 1-181)
Technique: protein binding microarray
Molecule type: double-stranded DNA, one strand shown
Medium: in vitro
Concentration: not given
Setting: 8-mer, flanks averaged, mean of 2 arrays, mostly near background
Relative to: not given
Reading: higher = stronger binding
Endpoint: E-score
Construct (chain): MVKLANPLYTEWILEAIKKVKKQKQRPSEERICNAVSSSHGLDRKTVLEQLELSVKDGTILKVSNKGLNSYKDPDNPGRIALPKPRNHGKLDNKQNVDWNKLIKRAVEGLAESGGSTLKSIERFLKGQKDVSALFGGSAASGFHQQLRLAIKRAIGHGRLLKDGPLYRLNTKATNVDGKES
AGTACTCA: -0.182
AGTGTTTA: 0.131
CGGTACTA: 0.188
CCTCGCAA: -0.0157
ATATGTGA: -0.13
CCCTGCAG: -0.00683
ATACGCAA: 0.0712
CAACGGTA: 0.121
AGTATATG: -0.0438
CCAGGGTA: -0.0788
GCTGTGTA: 0.0761
AATGGGTC: -0.128
AGACCACA: -0.136
ATTATGCG: 0.144
CTGACCGA: 0.101
GGAACTGA: -0.00245
AATCGCAG: -0.107
CCCTCAAG: -0.246
GGACGGGA: 0.223
ACCGCCGC: 0.316

Mixed results
PhoQ, residues 284 288 289 292 302 303 NLMGRA — fold induction (PhoP, residues 12 14 15 18 19 SYFRT (Escherichia coli, UniProt P23836); Sort-seq, item: YFP reporter; E. coli; PhoQ-PhoP variant library, with: 10 µM Mg2+; relative to: high Mg2+ state, higher = stronger signaling): 1.18

For quick reference, copied from above (block 2):
2'F-ANA at 2 9 11 13 14 15: 109 a.u.
2'F-ANA at 1 2 3 4 5 6 7 14 15: 48.6 a.u.
2'F-ANA at 2 3 4 7 10 11 12 14: 214 a.u.
2'F-ANA at 2 3 5 8 9 10 13 14 15: 65.1 a.u.
2'F-ANA at 1 2 4 6 7 8 9 11 12 13: 157 a.u.
2'F-ANA at 3 4 5 6 10 12 14: 47.8 a.u.
2'F-ANA at 2 3 4 13 15: 463 a.u.
2'F-ANA at 1 3 4 9 10 11 14: 51.6 a.u.
2'F-ANA at 1 4 5 8 11 12 14: 50.6 a.u.
